Results collected from several papers.
Each numbered part is a random draw from the data of one study; scales do not carry over between parts. Changes are numbered by the printed parent chain.

Study 1 — target: CCNA1, cyclin fold, Cln2 fusion (human); technique: yeast growth competition, sequencing; medium: yeast; setting: weak parent motif; relative to: not given; reading: higher = stronger binding
Parent: WEE1 docking peptide (human); HKTFRKLRLFDTP; partner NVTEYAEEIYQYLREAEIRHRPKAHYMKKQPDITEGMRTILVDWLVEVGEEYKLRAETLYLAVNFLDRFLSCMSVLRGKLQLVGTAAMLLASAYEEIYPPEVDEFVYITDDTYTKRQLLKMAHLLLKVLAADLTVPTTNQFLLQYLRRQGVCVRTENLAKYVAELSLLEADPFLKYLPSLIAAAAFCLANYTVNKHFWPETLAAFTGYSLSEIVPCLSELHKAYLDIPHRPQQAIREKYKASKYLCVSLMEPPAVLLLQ
Variant	normalised enrichment score
HKTFRKLRLFTTP [D11T]	0.127
VKTFRKLRLFDTP [H1V]	0.0574
HKTFRKLRWFDTP [L9W]	0.0643
HKMFRKLRLFDTP [T3M]	0.132
MKTFRKLRLFDTP [H1M]	0.204

Study 2 — technique: RNA Bind-n-Seq; form: RNA; medium: in vitro; tested at: 365 nM; relative to: no-protein control; reading: higher = stronger binding
Target: RNA binding protein fox-1 homolog 2, RRM domain, GST-SBP tag (RBFOX2, Homo sapiens, UniProt O43251-10, residues 100-194)
Setting: natural RNA segment, single round, ends assumed
Target sequence (chain): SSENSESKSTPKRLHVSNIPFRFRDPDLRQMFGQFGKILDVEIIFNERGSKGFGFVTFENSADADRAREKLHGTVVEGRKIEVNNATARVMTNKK
Oligonucleotide	RBNS enrichment (R)
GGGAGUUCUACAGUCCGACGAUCGCCUGAUUAGUCACAUAUCAUUGGAGGUCAAACGCCAUUUCCAGUGGCCUCUCUGUGUGCCCACAUGAUGCAAAGGGGUCAUGUACUAUGCCCUGGACAAAGAAGUAUGUUGGAAUUCUCGGGUGCCAA	0.469
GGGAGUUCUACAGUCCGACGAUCUGCCAAAUGACCACCCGUCAGGCAGAUUGAGGGCCAUCACUUCAAACAUAGAUUAAAUUUGUUUAGCACUAAACUAUCCCUAGAGUAAAUUUUUAUGCUUGACAAGUUGUUGGAAUUCUCGGGUGCCAA	0.321
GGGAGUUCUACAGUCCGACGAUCUUUUAUGUUUACCAUGUGAGUCCUGCAACACUAAAGAUAUUUUGAAUAUCAGUCAUGAUGGCAAUUUCUGUAUAAAAGAGCCUUAAAUGGAACAUUGUUUUGAGAUCAAAUGGAAUUCUCGGGUGCCAA	0.488
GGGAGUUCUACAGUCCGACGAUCCUGUCUAACGAAUAGCACAUAACUCAUAUUGUGAAUCCUAUGGGUCUUGAGGCCUGUAGAACCAAUCUUGUAAACCAAGAUGCCUUGUUCUUGGAAGUUACAAAAGAAGCUGGAAUUCUCGGGUGCCAA	0.927
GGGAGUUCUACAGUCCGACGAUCAUUUAAAAAAACAACAACAACAUUUUUUCAACAAUUUCAACAAUGACACAAAAAUUCACAUGGAAAUGGGGAAGAUGGUCUGUUUUGACAGAAACUGACAGGAAUCAAUCUGGAAUUCUCGGGUGCCAA	0.364
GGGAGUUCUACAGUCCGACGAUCGCUUUGUAAAUGUCUUAUUUGUGUAAUAAAUAAAGUUAAUGCGAGUAGAAGUGCCGGCACUUAAACCAGAAUGCCAUGGAAUUCCAUUUUUCUCUUGCUAAACCCUUGUCUGGAAUUCUCGGGUGCCAA	1.2
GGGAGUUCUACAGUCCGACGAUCCUCUUUUGUGGAUGGCUUCAAGUAACAUCUAUUUCCAUUGAUCCUAGGUUCUUACUGACUGCUUUCUCCAGCUGUUCACAGCAGAUGCUUGGAUUUUAUGCAGUAGGCUUUGGAAUUCUCGGGUGCCAA	0.419

Study 3 — technique: protein binding microarray; form: double-stranded DNA, one strand shown; medium: in vitro; tested at: not given; relative to: not given; reading: higher = stronger binding
Target: Histone acetyltransferase KAT6A, winged helix 1, GST fusion (KAT6A, Homo sapiens, UniProt Q92794, residues 1-85)
Setting: 8-mer, flanks averaged, mean of 2 arrays, mostly near background
Construct (chain): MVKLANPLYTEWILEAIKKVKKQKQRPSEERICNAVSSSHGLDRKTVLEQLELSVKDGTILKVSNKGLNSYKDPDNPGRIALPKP
Oligonucleotide	E-score
ACCGTTCT	0.0258
GTAGTCCA	-0.026
CCACCAGA	-0.25
TCATCCCA	-0.222
GAAGGTCC	-0.014

Mixed results
Substance	target	test	system	conditions	how to read	endpoint	result
PhoQ, residues 284 288 289 292 302 303 TGYLSA	PhoP, residues 12 14 15 18 19 YHFSH (Escherichia coli, UniProt P23836)	Sort-seq, refers to: YFP reporter	E. coli	PhoQ-PhoP variant library, together with: 10 µM Mg2+	relative to: high Mg2+ state, higher = stronger signaling	fold induction	6.48
